Literature values as cited in several papers.
Lines come from different studies, so protocols differ. ± marks the error that the study gave. ≈ marks a conversion by molar mass, not a printed value.

SMILES | target or system | assay | system | setting | how to read | measurement | value
CN(C)C(=N)N=C(N)N |  |  | type 2 diabetic patients, plasma | 1 g twice daily, 14 h after last dose |  | plasma concentration | 0.4 to 32 µM
Nc1nc2c(nc(Br)n2[C@@H]2O[C@@H]3COP(=O)(O)O[C@H]3[C@H]2O)c(=O)[nH]1 | PDE2A | cyclic nucleotide hydrolysis, substrate or inhibitor, isothermal titration calorimetry |  |  |  | Km or Ki | 90.9 µM
CN(C)C(=O)c1cc2cnc(Nc3ccc(N4CCNCC4)cn3)nc2n1C1CCCC1 |  |  | recurrent glioblastoma patients, MRI-enhancing tumour | oral, 900 mg/day, 5 days |  | unbound concentration | 2.15 nmol/g
CCN(CC)CCNC(=O)c1c(C)[nH]c(/C=C2\C(=O)Nc3ccc(F)cc32)c1C |  |  | patients | 50 mg daily, 24 h post-dose day 3, maximum time-matched |  | placebo-adjusted QTcF prolongation | 9.6 ms
COc1cccc2c1C(=O)c1c(O)c3c(c(O)c1C2=O)C[C@@](O)(C(=O)CO)C[C@@H]3O[C@H]1C[C@H](N)[C@H](O)[C@H](C)O1 |  |  | immunodeficient mouse 231-BR-HER2 model |  | baseline: peripheral metastases | brain metastasis uptake | 30 fold lower
NCCN[C@H]1CC[C@H](CC(=O)N[C@H]2Cc3cccc(C(=O)O)c3OB2O)CC1 |  |  | human, plasma | intravenous infusion, 500 mg over 2 h every 8 h, after 10 days, without cefepime |  | AUC(0-8 h) | 89.1 mg·h/L
Cc1c(N(C)CS(=O)(=O)O)c(=O)n(-c2ccccc2)n1C |  | item: CYP3A4 | human patients treated vs untreated, liver microsomes | dose not given | baseline: untreated patients | protein level and activity | increased
Cc1cc2c(cc1Cl)nc1c(=O)[nH]c(=O)nc-1n2C[C@H](O)[C@H](O)[C@H](O)COP(=O)(O)O |  |  |  |  |  | pKa | 3.42
Cc1nc2cccc(OCC(C)(C)C(=O)NC(C)C)c2c(N)c1C(=O)O.Cc1nc2cccc(OCC(C)(C)C(=O)NC(C)C)c2c(N)c1C(=O)O.O.O.O=S(=O)(O)O |  |  | rat, male, plasma | oral gavage, 30 mg/kg, molecular weight corrected | baseline: parent drug | Cmax | 114%
O=C1CC(c2ccc(O)cc2)Oc2cc(O)cc(O)c21 (stereo not drawn) |  |  | rat | oral, in meal, 230 µmol/rat, 24 h |  | urinary excretion as ring-cleaved metabolites | 10%
O=C1c2ccccc2-c2c1c1ccc([N+](=O)[O-])cc1c(=O)n2C[C@H](O)CO | breast MCF7 | cell growth |  |  |  | GI50 | 16 nM
C#Cc1cccc(Nc2ncnc3cc(OCCOC)c(OCCOC)cc23)c1 |  |  | human | oral, 150 mg once daily, 24 h, day 1 |  | AUC(0-t) | 11900 ± 5010 ng·h/mL
COc1cccc2c1C(=O)c1c(O)c3c(c(O)c1C2=O)C[C@@](O)(C(=O)CO)C[C@@H]3O[C@H]1C[C@H](N)[C@H](O)[C@H](C)O1 |  |  | tumour-bearing mice | 0.5-8 h | baseline: tumour over lung, heart or liver | tumour-to-organ uptake ratio | 5 to 10%
COc1cc2nc(N3CCN(C(=O)c4ccco4)CC3)nc(N)c2cc1OC |  |  |  | ionic strength 10 mM |  | pKa | 7.14
O=C1c2ccccc2-c2c1c1ccc([N+](=O)[O-])cc1c(=O)n2CCCn1ccnc1 | NCI-60 panel mean | cell growth |  |  |  | GI50 | 370 ± 280 nM
CNS(=O)(=O)Cc1ccc2[nH]cc(CCN(C)C)c2c1 |  |  | plasma | concentration not given |  | Cmax | 0.04 µM
Nc1ccn([C@@H]2CS[C@H](CO)O2)c(=O)n1 |  |  | Japanese HIV-infected patients | 300 mg, single dose, fasted, with: abacavir 600 mg |  | median Tmax | 2 h
O=C1c2cccc3c2[C@H](CCC3)CN1[C@@H]1CN2CCC1CC2 |  |  | healthy volunteers | oral, 0.75 mg single dose, mean, with: netupitant 450 mg |  | half-life | 38.5 h
Cn1c(=O)c2c(ncn2C)n(C)c1=O |  |  | plasma | concentration not given |  | Cmax | 42 µM
Cc1ccc(Nc2nccc(N(C)c3ccc4c(C)n(C)nc4c3)n2)cc1S(N)(=O)=O |  |  | patients | dose not given, all grades |  | patients with thrombocytopenia | 32%
CC[C@H](C)CCCCC(=O)N[C@@H](CCN)C(=O)N[C@H](C(=O)N[C@@H](CCN)C(=O)N[C@H]1CCNC(=O)[C@H]([C@@H](C)O)NC(=O)[C@H](CCN)NC(=O)[C@H](CCN)NC(=O)[C@H](CC(C)C)NC(=O)[C@@H](Cc2ccccc2)NC(=O)[C@H](CCN)NC1=O)[C@@H](C)O |  |  | human patients | intravenous, dose not given, two-compartment population PK model |  | peripheral volume of distribution | 22.3 L

SMILES | target or system | assay | system | setting | how to read | measurement | value
CCN1C(=O)N(c2c(F)c(OC)cc(OC)c2F)Cc2cnc3[nH]c(CN4CCOCC4)cc3c21 |  |  | patients with cancer | oral, 20 mg multiple doses, geometric mean |  | Cmax at steady state | 421 nM
O=C(O)CNC(=O)c1ccccc1[131I] |  |  | normal rat, heart | 60 min, with: co-injected 99mTc-1 |  | percent injected dose | 0 %ID
CCOc1cc([C@@H](CS(C)(=O)=O)N2C(=O)c3cccc(NC(C)=O)c3C2=O)ccc1OC |  |  | human | dose not given, with: ketoconazole |  | exposure increase | 36%
Cc1cc(C)c2c(c1)[C@@H](N(Cc1cc(C(F)(F)F)cc(C(F)(F)F)c1)c1nnn(C)n1)CCCN2C[C@H]1CC[C@H](C(=O)O)CC1 |  |  | healthy volunteers | up to 600 mg, multiple dose |  | tolerability | not toxic
COc1cccc(-c2c(C)n(Cc3c(F)cccc3C(F)(F)F)c(=O)n(C[C@H](NCCCC(=O)O)c3ccccc3)c2=O)c1F |  |  | human, Child-Pugh A hepatic impairment | 150 mg single dose, mean observed | baseline: patients over healthy volunteers | Cmax ratio | 0.8
CNC(=C[N+](=O)[O-])NCCSCc1ccc(CN(C)C)o1 |  |  | plasma | concentration not given |  | Cmax | 3.99 µM
CCCS(=O)(=O)Nc1ccc(F)c(C(=O)c2c[nH]c3ncc(-c4ccc(Cl)cc4)cc23)c1F | hiPSC-derived cardiomyocytes |  |  | 72 h, tested 0 to 100 µM |  | beating cessation concentration | 33 µM
C=C[C@@H]1C[C@]1(NC(=O)[C@@H]1C[C@@H](Oc2nccc3cc(OC)ccc23)CN1C(=O)[C@@H](NC(=O)OC(C)(C)C)C(C)(C)C)C(=O)NS(=O)(=O)C1CC1 |  |  | rat, liver | oral, 20 mg/kg, 24 h |  | tissue concentration | 730 nM
O=C(CNc1nc(NCC(=O)NO)nc(-c2ccccc2)n1)NO |  |  |  | acid side arm |  | pKa | 8 to 10
CC1(C)S[C@@H]2[C@H](NC(=O)[C@H](N)c3ccccc3)C(=O)N2[C@H]1C(=O)O |  |  | plasma | concentration not given |  | Cmax | 8.42 µM
CC[C@H](C)[C@H](N)C(=O)NCC(=O)N[C@@H](CC(C)C)C(=O)N[C@@H](CCSC)C(=O)N[C@H](C(=O)NCC(=O)NCC(=O)N[C@H](C(=O)N[C@H](C(=O)N[C@H](C(=O)N[C@@H](C)C(=O)O)[C@@H](C)CC)C(C)C)C(C)C)C(C)C |  | filtration | sodium phosphate buffer | pH 7.4 |  | solubility | 54 ± 24 µM (≈ 55.5 µg/mL)
CCCCc1oc2ccccc2c1C(=O)c1cc(I)c(OCCN(CC)CC)c(I)c1 |  |  | human | concentration not given, clinical |  | diarrhoea incidence | < 2%
CC[C@H](C)[C@H](NC(=O)[C@H](CCCCN)NC(=O)[C@@H](CCCCN)NC(=O)[C@H](Cc1ccccc1)NC(=O)[C@H](CC(C)C)NC(=O)[C@H](CCCCN)NC(=O)[C@@H](N)CCCCN)C(=O)N[C@@H](CC(C)C)C(=O)N[C@@H](CCCCN)C(=O)N[C@@H](Cc1ccc(O)cc1)C(=O)N[C@@H](CC(C)C)C(N)=O |  |  | horse erythrocytes 5 % v/v | 150 µM |  | hemolysis | 0 ± 0.5%
CO[C@H]1C[C@@H]2CC[C@@H](C)[C@@](O)(O2)C(=O)C(=O)N2CCCC[C@H]2C(=O)O[C@H]([C@H](C)C[C@@H]2CC[C@@H](O)[C@H](OC)C2)CC(=O)[C@H](C)/C=C(\C)[C@@H](O)[C@@H](OC)C(=O)[C@H](C)C[C@H](C)/C=C/C=C/C=C/1C |  | population PK model | paediatric neurofibromatosis patients |  |  | clearance | 17.3 ± 7.9 L/h/1.85 m²
CC(C)c1c(C(=O)Nc2ccccc2)c(-c2ccccc2)c(-c2ccc(F)cc2)n1CC[C@@H]1C[C@@H](O)CC(=O)O1 |  |  | patients with vs without statin-induced myopathy | dose not given | baseline: patients without myopathy history | exposure ratio | 2.4 fold
Cc1ccccc1-c1cc(N2CCN(C)CC2)ncc1N(C)C(=O)C(C)(C)c1cc(C(F)(F)F)cc(C(F)(F)F)c1 |  |  | healthy volunteers | oral, 450 mg single dose, mean, with: palonosetron 0.75 mg |  | Tmax | 5.61 h
C[C@H]1c2cccc(O)c2C(=O)C2=C(O)[C@]3(O)C(=O)C(C(N)=O)=C(O)[C@@H](N(C)C)[C@@H]3[C@@H](O)[C@@H]21 |  |  | water | hydrate form |  | aqueous solubility | 1.8 mg/mL (≈ 4.05 mM)
C[C@]12CC[C@H](O)CC1=CC[C@@H]1[C@@H]2CC[C@]2(C)C(c3cccnc3)=CC[C@@H]12 |  |  | human, plasma |  |  | unbound fraction | < 1%
CC[C@H](C)C(=O)O[C@H]1C[C@@H](C)C=C2C=C[C@H](C)[C@H](CC[C@@H]3C[C@@H](O)CC(=O)O3)[C@H]21 |  |  | plasma | concentration not given |  | Cmax | 0.01 µM
CS(=O)(=O)CCNCc1ccc(-c2ccc3ncnc(Nc4ccc(OCc5cccc(F)c5)c(Cl)c4)c3c2)o1 | hiPSC-derived cardiomyocytes |  |  | 72 h, tested 0 to 100 µM |  | beating cessation concentration | 33 µM
NC(=O)N1c2ccccc2C=Cc2ccccc21 |  |  | water | hydrate |  | aqueous solubility | -0.9 log mg/mL
